Assay results pooled from the literature.
Parts stem from different laboratories: compare values within a part only.

Study 1 — technique: RNA Bind-n-Seq; form: RNA; medium: in vitro; tested at: not given; setting: RNA with constant flanks, ends assumed; reference: input RNA pool; reading: higher = stronger binding
Target: RING finger protein unkempt homolog, zinc fingers 1-6, GST-SBP tag (UNK, Homo sapiens, UniProt Q9C0B0, residues 30-357)
Sequence of UniProt Q9C0B0 (30-357, looked up): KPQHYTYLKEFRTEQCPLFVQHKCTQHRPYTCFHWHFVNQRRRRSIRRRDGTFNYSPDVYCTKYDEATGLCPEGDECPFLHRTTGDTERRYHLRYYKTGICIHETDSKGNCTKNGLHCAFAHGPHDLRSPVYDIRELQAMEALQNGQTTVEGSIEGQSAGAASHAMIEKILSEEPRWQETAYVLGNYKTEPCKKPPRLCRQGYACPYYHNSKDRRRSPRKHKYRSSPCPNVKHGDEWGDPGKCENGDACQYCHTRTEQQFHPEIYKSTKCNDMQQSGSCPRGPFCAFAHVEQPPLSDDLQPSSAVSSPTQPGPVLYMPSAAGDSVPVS
Sequence | bound/input enrichment
GGGAGUUCUACAGUCCGACGAUCUUUUGUAUUGUACAUAAAAUUACCUAGAAAUGCACUUUUCCUCCAAAAUGUAGGUUCGUGAACCGACUUAGCAUGAUGAAGCUGUCUUUACAGUGAAUGCUUACCCUGUGUAGAGAAAGCCAACAGAGGAUUGAGCAUCA | 1.61 ratio
GGGAGUUCUACAGUCCGACGAUCGCAACUUGGAAAGGCUGUCUUUCAAACUUCAGUUCCUAUCUGACUAAAACAGCCGAUUUCACCGAACAAUCAGUUUUUUACUGGGAACAGGUGACAGAUGGGUUUUUCAUUUUCAAUGAACAACAGAGGAUUGAGCAUCA | 0.158 ratio
GGGAGUUCUACAGUCCGACGAUCUCAGAAGAGGUGCUGGGUCACUUUCCGUAUCCUGAUCCUUCCCAGUGGACAGAUGAAGAAUCCGGUAUCCCUCCUGAUGAUGAAGACUGAAGGUGUAGACUCAGCCUCACUCUGUACAAGCAACAGAGGAUUGAGCAUCA | 0.105 ratio
GGGAGUUCUACAGUCCGACGAUCAUGGUGCAAAAUGUGAGCUUCAAGUAUACAAAAGAUGGGCCUUGCAUCUACAAUAAUCCCGAAUUUGGAAUUGACCUUGACACACGAGUGGCUCUGGUAGGGCCCAAUGGAGCAGGGAAGCAACAGAGGAUUGAGCAUCA | 0.208 ratio

Study 2 — technique: protein-binding microarray; form: double-stranded DNA, one strand shown; medium: in vitro; tested at: 250 nM; setting: 60-bp whole probe; together with: salmon DNA 0.4 mg/ml; reference: random background probes; reading: higher = stronger binding; all sequences stand within: GCCTAGCAC … GTCTTGATTCGCTTGACGCTGCTG
Target: Interferon regulatory factor 5, full length, phosphomimetic (IRF5, Homo sapiens, UniProt Q13568-2, residues 1-514, K96S/S451D/S453D/S456D/S462D)
Sequence | log fluorescence [z-score]
AACGGTATCGGGTTTCGGGACGTGCTA | 4.98
AAGCAAGGTGGAGAAGAGAAGTGCTAG | -0.474
TTAGATATGGGGTTTCGATTAGTGCTA | 5.57
GACGATTTCAGACTGGAGAAGTGCTAG | 0.0434
TCAGGTATCGGGTTTCGGTTAGTGCTA | 8.14

Study 3 — technique: universal PBM; form: double-stranded DNA, one strand shown; medium: in vitro; tested at: not given; reading: higher = stronger binding
Target: Sal-like protein 4, full length isoform B (SALL4, Homo sapiens, UniProt Q9UJQ4-2, residues 1-616)
Setting: 8-mer, flanks averaged, mean of replicates
Construct (chain): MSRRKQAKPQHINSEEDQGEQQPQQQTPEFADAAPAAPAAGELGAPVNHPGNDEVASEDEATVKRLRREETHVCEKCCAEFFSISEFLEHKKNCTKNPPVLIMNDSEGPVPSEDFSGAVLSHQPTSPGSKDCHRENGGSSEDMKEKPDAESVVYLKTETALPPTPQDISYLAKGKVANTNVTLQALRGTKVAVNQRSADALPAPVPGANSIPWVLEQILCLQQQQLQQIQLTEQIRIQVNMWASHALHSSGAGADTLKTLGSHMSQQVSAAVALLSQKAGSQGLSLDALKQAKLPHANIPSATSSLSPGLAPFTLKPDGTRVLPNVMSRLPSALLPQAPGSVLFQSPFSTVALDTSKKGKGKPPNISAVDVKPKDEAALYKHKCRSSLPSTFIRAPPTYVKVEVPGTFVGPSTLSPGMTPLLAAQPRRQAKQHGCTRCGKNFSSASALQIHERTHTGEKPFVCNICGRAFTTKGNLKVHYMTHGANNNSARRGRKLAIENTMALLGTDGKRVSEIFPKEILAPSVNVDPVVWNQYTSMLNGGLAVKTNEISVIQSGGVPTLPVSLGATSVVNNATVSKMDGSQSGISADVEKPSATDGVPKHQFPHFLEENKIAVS
Sequence | E-score
CAAGACCC | -0.188
TACGCCCA | -0.043
ATACCGTC | 0.11
AGATCACT | 0.122
CTCAATTC | 0.0127
AATTGCAA | 0.301

Mixed results
Substance | target | assay | test system | conditions | scale | quantity | result
PhoQ, residues 284 288 289 292 302 303 TNASYF | PhoP, residues 12 14 15 18 19 LYHSL (Escherichia coli, UniProt P23836) | Sort-seq, refers to: YFP reporter | E. coli | PhoQ-PhoP variant library, together with: 10 µM Mg2+ | reference: high Mg2+ state, higher = stronger signaling | fold induction | 2.6

Repeated from above (study 1):
Sequence | bound/input enrichment
GGGAGUUCUACAGUCCGACGAUCUUUUGUAUUGUACAUAAAAUUACCUAGAAAUGCACUUUUCCUCCAAAAUGUAGGUUCGUGAACCGACUUAGCAUGAUGAAGCUGUCUUUACAGUGAAUGCUUACCCUGUGUAGAGAAAGCCAACAGAGGAUUGAGCAUCA | 1.61 ratio
